Measurements of several laboratories.
Every numbered part comes from another study and shows a few of its results, in no order. Changes are numbered by the printed parent chain.

Set 1 — technique: DHFR PCA, deep sequencing; sample: yeast; with: (+)-ABA 4.8 µM; relative to: wild-type fitted maximum; reading: higher = stronger binding
Target: ABI1, truncated, D143A, DHFR fusion (Arabidopsis thaliana)
Setting: methotrexate growth selection, single substitutions
Parent: PYL1, truncated, DHFR fusion (Arabidopsis thaliana); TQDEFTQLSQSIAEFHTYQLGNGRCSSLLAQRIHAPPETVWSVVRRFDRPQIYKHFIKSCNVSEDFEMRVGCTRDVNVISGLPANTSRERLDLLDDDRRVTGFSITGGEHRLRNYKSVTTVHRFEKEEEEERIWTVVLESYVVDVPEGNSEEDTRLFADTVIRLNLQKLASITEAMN
Substitution | relative binding score
S59D | 70.4%
I172C | 32.8%
I12T | 2.68%
L138C | 13.2%
Q7M | 76.7%
E67V | 78.2%
D96I | -14.1%
I172G | 1.44%
R69M | 61.8%
E89D | 9.7%
R113T | 72.4%
I172P | -0.893%
V145P | 7.99%
E147N | 55.7%

Set 2 — technique: RNA Bind-n-Seq; molecule type: RNA; sample: in vitro; tested at: not given; relative to: input RNA pool; reading: higher = stronger binding
Target: RING finger protein unkempt homolog, zinc fingers 1-6, GST-SBP tag (UNK, Homo sapiens, UniProt Q9C0B0, residues 30-357)
Setting: RNA with constant flanks, human and mouse sites, ends assumed
Construct (chain): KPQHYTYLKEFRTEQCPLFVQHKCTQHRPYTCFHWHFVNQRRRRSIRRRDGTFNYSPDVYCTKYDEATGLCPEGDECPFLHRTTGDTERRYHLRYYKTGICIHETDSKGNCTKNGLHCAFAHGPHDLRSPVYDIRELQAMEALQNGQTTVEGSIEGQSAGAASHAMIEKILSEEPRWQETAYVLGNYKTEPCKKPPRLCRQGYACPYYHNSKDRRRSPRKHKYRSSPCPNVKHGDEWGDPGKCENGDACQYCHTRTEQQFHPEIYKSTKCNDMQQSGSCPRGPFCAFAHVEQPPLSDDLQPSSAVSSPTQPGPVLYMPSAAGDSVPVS
Sequence | bound/input enrichment [ratio]
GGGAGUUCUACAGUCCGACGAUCGCUGAAGAUUUAAUUUGUGAUACCUUUGUAUGUAUGAGACACAUUCCAAAGAGCUCUAACUAUGAUAGGUCCUGAUUACUAAAGAAGCUUCUUUACUGGCCUCAAUUUCUAGCUUUCAUGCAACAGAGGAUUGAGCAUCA | 0.163
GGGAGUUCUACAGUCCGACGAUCAUAAAGGAGGAAGAAGACGACAUUUCUGACAAGGGCAGUGAUUCUGAAGAGGAAGAAACCAAUAGAGAUUCUCAGAGUGAGAAAGAAGAUGGUAGUGACAGGGAGUCUGAUAGAGAGCAACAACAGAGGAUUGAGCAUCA | 1.28
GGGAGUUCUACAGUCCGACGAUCAAGGUGCACCUGGAUUCUGCAGUCGCCCUGGCCGCUGAGAGCCCUGUUAAUAUGAUGCCCUGGCAGGGGGACACCAACAACAUGAUUGACCGAUUCGAUGUCCGUGCCCACCUGGACCACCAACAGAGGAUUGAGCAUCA | 0.0787
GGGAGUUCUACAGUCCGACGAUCUUUGAUUUUCUUAUCCGGCUGCUCCCCUAUCAGACCUCAUCUUUUUUAAUUUUAUUUUUUGUUUACCUCCCUCCAUUCAUUCACAUGCUCAUCUGAGAAGACUUAAGUUCUUCCAGCUUUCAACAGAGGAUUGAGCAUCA | 41.7
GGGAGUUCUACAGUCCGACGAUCUCUGGGUGCUGACAGACCGGCAGAGGGAAGAUCUCCUAUUGUGGAUUCCUGCUAUCUUAUAAUGAGUGACAUUUUGCCAUUAGAUGUCAUUGGUAGAAGAGUUGAAGUUAAUGGAGAAUACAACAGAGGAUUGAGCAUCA | 0.381
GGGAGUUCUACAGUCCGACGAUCUUCUCCAUAUACAACUUGAAUGAAGCUCUGAAUCAGGGAGAGACUGUGGAUCUGGAUGCCUUGAUGGCUGAUCUUUGCUCUAUAGAGCAGGAGCUCAGCAGCAUUGGUUCAGGAAACAGUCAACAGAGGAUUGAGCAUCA | 0.209
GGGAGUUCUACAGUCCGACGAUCUCUGAAUCGGAGCAGGCUCUUAAAGGUACCUCUCAGAUUAAGUUACUCUCAUCUGAAGAUAUAGAAGGGAUGCGACUCGUGUGUAGGCUUGCCAGAGAAGUUUUGGACAUUGCUGCUGGGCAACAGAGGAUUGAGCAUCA | 0.289
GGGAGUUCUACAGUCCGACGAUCGGUUACAGGAAGUCCCUCACCCUCCCAAAAGCCACCCCCACUCCUAAGAGGAGGAUGGUCGCGUCCAUGCCCUGAGUCCACCCCGGGGAAGGUGACAGCAUUGCUUCUGUGUAAAUUAUGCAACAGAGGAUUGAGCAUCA | 0.214

Set 3 — technique: RNAcompete; molecule type: RNA; sample: in vitro; tested at: 20 nM; setting: 7-mer, probes averaged, single round; relative to: mean of 7-mers; reading: higher = stronger binding
Target: PABPC1L2, full length, GST fusion (mouse, UniProt A0ABA7IW68)
Residues (chain): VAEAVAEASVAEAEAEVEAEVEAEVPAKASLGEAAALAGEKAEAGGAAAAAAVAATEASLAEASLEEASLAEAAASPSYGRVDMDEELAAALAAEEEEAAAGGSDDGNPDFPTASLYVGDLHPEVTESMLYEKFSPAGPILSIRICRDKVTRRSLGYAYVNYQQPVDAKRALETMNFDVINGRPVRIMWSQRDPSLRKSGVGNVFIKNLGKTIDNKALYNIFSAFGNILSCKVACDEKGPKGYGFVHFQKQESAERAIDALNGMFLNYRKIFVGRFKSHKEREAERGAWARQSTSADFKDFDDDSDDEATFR
Sequence | 7-mer Z-score
GCAAGAC | 0.0569
AUUACCC | -0.278
AGAAAGG | 0.57
CCCGUAG | -0.26
CUCGUCC | -0.505
CCAAACU | -0.106
UAUAAAU | 2.22
UAUUAGA | -0.132
AGGCCGG | 0.0116
CACCCCG | -0.441
ACCAUCG | -0.318
UUGGCUG | -0.144
UCUGAUA | -0.211
GUGGAGC | 0.146
CCUCGCA | -0.374
UUAACAG | -0.0971
UGCUACG | -0.0971
UACUAUG | -0.0536
AGAGAUA | 0.0696

Set 4 — technique: protein binding microarray; molecule type: double-stranded DNA, one strand shown; sample: in vitro; tested at: not given; relative to: not given; reading: higher = stronger binding
Target: Histone acetyltransferase KAT6A, both winged helices, GST fusion (KAT6A, Homo sapiens, UniProt Q92794, residues 1-181)
Setting: 8-mer, flanks averaged, mean of 2 arrays, mostly near background
Target sequence (chain): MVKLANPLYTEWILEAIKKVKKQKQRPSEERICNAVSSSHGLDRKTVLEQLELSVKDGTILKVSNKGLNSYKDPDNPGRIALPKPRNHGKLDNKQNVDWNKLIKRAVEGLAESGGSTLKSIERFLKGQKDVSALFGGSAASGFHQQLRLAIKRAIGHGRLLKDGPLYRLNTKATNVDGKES
Sequence | E-score
CCCCGCCG | 0.31
CCAACAGA | -0.145
ACGTACGC | 0.208
CGCAAGCG | 0.255
CCACCGAG | -0.137
CGGCCTGA | 0.137
GCCAGCGA | 0.0192
CAAAGAGC | -0.0405
AGACGTGA | 0.0491
AGTATTCC | -0.0244
AAGCATTC | 0.00208
CCTACAAC | -0.039
ATGGGCCA | -0.256
CAGCTAAC | -0.186
CAGATGCC | -0.0721
ACACCGAG | 0.0549
CAGAAGCG | 0.121
AAGAGAGT | -0.11
CGACGCGA | 0.234
AATCCGAA | -0.0423
ACTAGGAC | -0.117
CATAGAGC | -0.0108
AGGCGAGG | -0.137
AAGCACGT | -0.0666
CAAAATTA | 0.0371

Excerpt of the above (set 1):
Substitution | relative binding score
D96I | -14.1%
I12T | 2.68%
L138C | 13.2%
V145P | 7.99%
R113T | 72.4%
I172G | 1.44%
E67V | 78.2%
R69M | 61.8%
